Measured values from different studies.
Compare with care: the assays were run in different laboratories. “And” joins repeats or separate records; there may be more than shown. ± marks the error that the study gave. In brackets after ≈: the same amount, converted by molar mass.
rep main protease: Replicase polyprotein 1ab, main protease (rep, Severe acute respiratory syndrome coronavirus 2, UniProt P0DTD1)
Spike glycoprotein: Spike glycoprotein (Severe acute respiratory syndrome coronavirus 2, UniProt P0DTC2)
Sequence of UniProt P78348 (whole entry, looked up): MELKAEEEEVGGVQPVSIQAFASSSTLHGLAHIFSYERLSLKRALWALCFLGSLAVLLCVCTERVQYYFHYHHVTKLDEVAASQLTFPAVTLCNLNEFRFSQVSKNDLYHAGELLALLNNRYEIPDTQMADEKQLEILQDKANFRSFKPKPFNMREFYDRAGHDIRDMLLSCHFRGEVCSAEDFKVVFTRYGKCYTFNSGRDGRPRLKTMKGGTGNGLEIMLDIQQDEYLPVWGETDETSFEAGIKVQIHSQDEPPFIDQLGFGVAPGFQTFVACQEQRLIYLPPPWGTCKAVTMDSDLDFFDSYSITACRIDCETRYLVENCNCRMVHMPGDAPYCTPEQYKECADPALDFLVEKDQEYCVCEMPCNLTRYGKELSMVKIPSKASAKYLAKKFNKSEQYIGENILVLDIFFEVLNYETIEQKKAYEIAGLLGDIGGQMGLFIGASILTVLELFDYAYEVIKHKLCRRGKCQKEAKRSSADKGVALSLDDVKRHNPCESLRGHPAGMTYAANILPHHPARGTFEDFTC

For `Cc1nocc1C(=O)N1Cc2ccccc2[C@@H](CNC(=O)c2cncc3ccc(F)cc23)C1`, the inhibition was 8.8% (rep main protease; enzyme activity, inhibitor; 5 µM, run 2).
Under “patients with adverse event”, `Cn1cnc(Cn2c(=O)[nH]/c(=N\c3cc4cn(C)nc4cc3Cl)n(Cc3cc(F)c(F)cc3F)c2=O)n1` is recorded as 0% (human, severe renal impairment; oral, 375 mg, treatment-related dry mouth, Moderate severity).
For `CCC(C)n1ncn(-c2ccc(N3CCN(c4ccc(OCC5COC(Cn6cncn6)(c6ccc(Cl)cc6Cl)O5)cc4)CC3)cc2)c1=O` (centres unmarked), the MIC was 3.12 µg/mL (≈ 4.43 µM) (Spike glycoprotein, HR1/HR2 domains (Severe acute respiratory syndrome coronavirus 2, UniProt P0DTC2); HR1-HR2 interaction, yeast two-hybrid; AH109; 48 h).
`C[C@H](NC(=O)Cc1cc(F)cc(F)c1)C(=O)N[C@@H]1C(=O)N(C)c2ccccc2-c2ccccc21` has an inhibition of 0.0344% (rep main protease; viral replication, mKate2 reporter; SARS-CoV-2; 20 µM).
The inhibition of `O=C(NC[C@@H]1Cc2ccccc2CN1C(=O)c1noc2c1CCCC2)c1cn[nH]c(=O)c1` is reported as 12.1% (rep main protease; enzyme activity, inhibitor; 5 µM, mean of runs).
`O=c1c(O)c(-c2ccc(O)cc2O)oc2cc(O)cc(O)c12` has a kon of 337 M⁻¹ s⁻¹ (Spike glycoprotein; binding, BLI).
For `CC[C@H](C)[C@H](NC(=O)[C@H](CC(C)C)NC(=O)[C@H](Cc1c[nH]c2ccccc12)NC(=O)[C@H](CCC(N)=O)NC(=O)[C@@H](NC(=O)[C@H](Cc1ccccc1)NC(=O)[C@H](C)NC(=O)[C@H](CCCCNC(=O)COCCOCCNC(=O)COCCOCCNC(=O)CC[C@H](NC(=O)CCCCCCCCCCCCCCCCCCC(=O)O)C(=O)O)NC(=O)[C@H](CCC(N)=O)NC(=O)[C@H](C)NC(=O)[C@@H](NC(=O)[C@H](CCCCN)NC(=O)[C@H](CC(=O)O)NC(=O)[C@H](CC(C)C)NC(=O)C(C)(C)NC(=O)[C@@H](NC(=O)[C@H](CO)NC(=O)[C@H](Cc1ccc(O)cc1)NC(=O)[C@H](CC(=O)O)NC(=O)[C@H](CO)NC(=O)[C@@H](NC(=O)[C@H](Cc1ccccc1)NC(=O)[C@@H](NC(=O)CNC(=O)[C@H](CCC(=O)O)NC(=O)C(C)(C)NC(=O)[C@@H](N)Cc1ccc(O)cc1)[C@@H](C)O)[C@@H](C)O)[C@@H](C)CC)[C@@H](C)CC)C(C)C)C(=O)N[C@@H](C)C(=O)NCC(=O)NCC(=O)N1CCC[C@H]1C(=O)N[C@@H](CO)C(=O)N[C@@H](CO)C(=O)NCC(=O)N[C@@H](C)C(=O)N1CCC[C@H]1C(=O)N1CCC[C@H]1C(=O)N1CCC[C@H]1C(=O)N[C@@H](CO)C(N)=O`, “subjects with severe hypoglycaemia” read 0% (healthy subjects; all MAD doses).
The AC50 of `CC(Nc1nc(N2CCNCC2C)nc2ccccc12)c1ccccc1` (centres unmarked) is reported as 8.91 µM (SARS-CoV-2; cytopathic effect, cell-based CPE; USA_WA1/2020; round 2, 5-point dilution).
For `CCc1c(C(=O)C(N)=O)c2c(OCC(=O)O)cccc2n1Cc1ccccc1`, the remaining activity was 94.2% and 95% and 93% (Daboia russelii venom phospholipase A2; enzyme activity, inhibitor; MH population; 0.001 µM, with: NOB substrate; baseline: venom alone).
For `O=c1c(-c2ccc(O)cc2)coc2c([C@@H]3O[C@H](CO[C@@H]4OC[C@@H](O)[C@H](O)[C@H]4O)[C@@H](O)[C@H](O)[C@H]3O)c(O)ccc12`, the inhibition was -0.848% (rep main protease; reporter gene (mKate2), inhibitor; 20 µM).
`O=C(NC[C@H](NC(=O)c1cn[nH]c1-c1ccoc1)c1ccc2ccccc2c1)c1ccccc1` gave an inhibition of 13.9% (rep main protease; enzyme activity, inhibitor; 5 µM, run 2).
`CC[C@H](C)[C@H](N)C(=O)N1CCC[C@H]1C(=O)N[C@H](C(=O)O)[C@@H](C)CC` gave an inhibition of 0.434% (rep main protease; reporter gene (Gaussia luciferase), inhibitor; 20 µM).
`CCc1cc(C(=O)N2CC[C@@H]([C@@H]3CCCN3C(=O)c3ccc4oc(N)nc4c3)C2)cc(=O)[nH]1` has an inhibition of 9.5% (rep main protease; enzyme activity, inhibitor; 5 µM, run 1).
With `Nc1ncnc2c([C@@H]3N[C@H](CO)[C@@H](O)[C@H]3O)c[nH]c12` the inhibition was 91.7% (Sudan ebolavirus; viral replication; HeLa, Boniface; 400 µM).
`O=C(NS(=O)(=O)c1ccc(Br)s1)c1ccc(Cl)cc1Cl` has an inhibition of -0.288% (rep main protease; reporter gene (Gaussia luciferase), inhibitor; 20 µM).
`Oc1cc(O)c2c(c1)O[C@H](c1cc(O)c(O)c(O)c1)[C@H](O)C2` has a kon of 139 M⁻¹ s⁻¹ (Spike glycoprotein; binding, BLI).
With `CC[C@H](C)[C@H](NC(=O)[C@H](CC(C)C)NC(=O)[C@H](Cc1c[nH]c2ccccc12)NC(=O)[C@H](CCC(N)=O)NC(=O)[C@@H](NC(=O)[C@H](Cc1ccccc1)NC(=O)[C@H](C)NC(=O)[C@H](CCCCNC(=O)COCCOCCNC(=O)COCCOCCNC(=O)CC[C@H](NC(=O)CCCCCCCCCCCCCCCCCCC(=O)O)C(=O)O)NC(=O)[C@H](CCC(N)=O)NC(=O)[C@H](C)NC(=O)[C@@H](NC(=O)[C@H](CCCCN)NC(=O)[C@H](CC(=O)O)NC(=O)[C@H](CC(C)C)NC(=O)C(C)(C)NC(=O)[C@@H](NC(=O)[C@H](CO)NC(=O)[C@H](Cc1ccc(O)cc1)NC(=O)[C@H](CC(=O)O)NC(=O)[C@H](CO)NC(=O)[C@@H](NC(=O)[C@H](Cc1ccccc1)NC(=O)[C@@H](NC(=O)CNC(=O)[C@H](CCC(=O)O)NC(=O)C(C)(C)NC(=O)[C@@H](N)Cc1ccc(O)cc1)[C@@H](C)O)[C@@H](C)O)[C@@H](C)CC)[C@@H](C)CC)C(C)C)C(=O)N[C@@H](C)C(=O)NCC(=O)NCC(=O)N1CCC[C@H]1C(=O)N[C@@H](CO)C(=O)N[C@@H](CO)C(=O)NCC(=O)N[C@@H](C)C(=O)N1CCC[C@H]1C(=O)N1CCC[C@H]1C(=O)N1CCC[C@H]1C(=O)N[C@@H](CO)C(N)=O` the AUC(0-inf) was 80500 ng·h/mL (human, normal renal function, plasma; subcutaneous, 5 mg single dose, eGFR ≥ 90 (MDRD), geometric mean).
For `CC[C@H](C)[C@H](NC(=O)[C@@H]1CCCN1C(=O)[C@H](C)NC(=O)[C@@H]1CSSC[C@@H]2NC(=O)[C@H](CC(=O)O)NC(=O)[C@H](CCCNC(=N)N)NC(=O)[C@H](CCC(=O)O)NC(=O)[C@H](CCCNC(=N)N)NC(=O)CNC(=O)[C@H](CC(=O)O)NC(=O)[C@@H]3CSSC[C@H](NC(=O)[C@H](CCC(=O)O)NC(=O)[C@H](CC(C)C)NC(=O)CNC(=O)[C@H](C)NC(=O)[C@H](CSSC[C@H](NC(=O)[C@H](Cc4ccccc4)NC(=O)[C@@H](N)CO)C(=O)N[C@@H](CC(C)C)C(=O)N[C@@H](C(C)C)C(=O)N[C@@H](CCCCN)C(=O)N[C@@H](Cc4c[nH]c5ccccc45)C(=O)N[C@@H](CCCCN)C(=O)N[C@@H](CCC(N)=O)C(=O)N3)NC2=O)C(=O)N[C@@H](Cc2c[nH]c3ccccc23)C(=O)N[C@@H](CCCCN)C(=O)N[C@@H](CCCNC(=N)N)C(=O)N[C@@H](CO)C(=O)NCC(=O)N[C@@H](CC(N)=O)C(=O)N[C@@H](CCCCN)C(=O)N[C@@H](CO)C(=O)N[C@@H](CO)C(=O)N[C@@H](C(C)C)C(=O)N1)C(=O)N[C@H](C(=O)O)[C@@H](C)O`, “deactivation time constant” read 79 ± 18 ms (ASIC1 (Homo sapiens, UniProt P78348); outside-out patch clamp; HEK-293T ASIC1a knockout; 1 µM, wild type).
The kon of `CC[C@H](CC[C@@H](C)[C@H]1CC[C@H]2[C@@H]3CC=C4C[C@@H](O[C@@H]5O[C@H](CO)[C@@H](O)[C@H](O)[C@H]5O)CC[C@]4(C)[C@H]3CC[C@]12C)C(C)C` is reported as 1.94e+06 M⁻¹ s⁻¹ (Spike glycoprotein; binding, BLI).
`Cc1ccc(C)c(Nc2cc(C(=O)NCCCN(C)C3CCCCC3)c3ccccc3n2)c1` has an efficacy of 83.4% (SARS-CoV-2; cytopathic effect; USA_WA1/2020; round 2, 5-point).

For quick reference, copied from above:
`Cc1ccc(C)c(Nc2cc(C(=O)NCCCN(C)C3CCCCC3)c3ccccc3n2)c1` has an efficacy of 83.4% (SARS-CoV-2; cytopathic effect; USA_WA1/2020; round 2, 5-point).
`C[C@H](NC(=O)Cc1cc(F)cc(F)c1)C(=O)N[C@@H]1C(=O)N(C)c2ccccc2-c2ccccc21` has an inhibition of 0.0344% (rep main protease; viral replication, mKate2 reporter; SARS-CoV-2; 20 µM).
`O=C(NC[C@H](NC(=O)c1cn[nH]c1-c1ccoc1)c1ccc2ccccc2c1)c1ccccc1` gave an inhibition of 13.9% (rep main protease; enzyme activity, inhibitor; 5 µM, run 2).
